Published values from different studies.
A part holds a random share of what one study measured.

Set 1
Target: UBE2D4 UBC core domain (UniProt Q9Y2X8)
Method: yeast two-hybrid
Sample: yeast
Notes: mostly zero background
Relative to: not given
Reading: higher = stronger interaction
B1: IRF2BPL RING domain (UniProt Q9H1B7); chain SPMANSGPLCCTICHERLEDTHFVQCPSVPSHKFCFPCSRESIKAQGATGEVYCPSGEKCPLVGSNVP
B2: ARK2C RING domain (UniProt Q6ZSG1); chain EGEESDTDEKCTICLSMLEDGEDVRRLPCMHLFHQLCVDQWLAMSKKCPICRVDIETQLGAD
B3: PHF21A RING domain (UniProt Q96BD5); chain SPTSTDGDIHEDFCSVCRKSGQLLMCDTCSRVYHLDCLDPPLKTIPKGMWICPRCQDQMLKKEEAIPW
B4: ZNF598 RING domain (UniProt Q86UK7); chain AAAPERGGGSCVLCCGDLEATALGRCDHPVCYRCSTKMRVLCEQRYCAVCREELRQVVFGK
Construct (chain): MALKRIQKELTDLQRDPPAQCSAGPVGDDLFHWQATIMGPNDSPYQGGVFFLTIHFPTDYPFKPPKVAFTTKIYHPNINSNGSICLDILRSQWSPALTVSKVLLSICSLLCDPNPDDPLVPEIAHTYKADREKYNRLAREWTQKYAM
Molecule | lacZ reporter activity
B1 (IRF2BPL RING domain) | 0
QLRRLQEERTCKVCMDKEVSVVFIPCGHLVVCQECAPSLRKCPICRGIIKGTVRTF (BIRC2 RING domain (UniProt Q13490)) | 0
KTLSRFGIQPCSICLGDAKDPVCLPCDHVHCLRCLRAWFASEQMICPYCLTALPDEFSPA (RNF213 RING domain (UniProt Q63HN8)) | 0
B2 (ARK2C RING domain) | 15000
B3 (PHF21A RING domain) | 0
DDENSDNSNECVVCLSDLRDTLILPCRHLCLCTSCADTLRYQANNCPICRLPFRALLQIR (MGRN1 RING domain (UniProt O60291)) | 0
B4 (ZNF598 RING domain) | 0
YWAMDSTFELCKICAESNKDVKIEPCGHLLCSCCLAAWQHSDSQTCPFCRCEIKGWEAVS (CBLC RING domain (UniProt Q9ULV8)) | 0
QLRRLQEERTCKVCMDKEVSIVFIPCGHLVVCKDCAPSLRKCPICRSTIKGTVRTF (BIRC3 RING domain (UniProt Q13489)) | 0

Set 2
Target: PABPC1L2, full length, GST fusion (mouse, UniProt A0ABA7IW68)
Method: RNAcompete
Form: RNA
Sample: in vitro
Concentration: 20 nM
Notes: 7-mer, probes averaged, single round
Relative to: mean of 7-mers
Reading: higher = stronger binding
Target sequence (chain): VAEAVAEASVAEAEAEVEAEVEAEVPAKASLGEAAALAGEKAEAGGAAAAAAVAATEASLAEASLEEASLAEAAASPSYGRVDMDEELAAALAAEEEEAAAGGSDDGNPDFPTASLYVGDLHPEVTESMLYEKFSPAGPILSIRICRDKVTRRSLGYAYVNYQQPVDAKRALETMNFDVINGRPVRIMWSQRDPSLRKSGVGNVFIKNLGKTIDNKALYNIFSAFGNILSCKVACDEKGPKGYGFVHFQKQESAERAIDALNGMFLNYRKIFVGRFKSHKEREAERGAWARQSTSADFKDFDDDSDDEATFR
Oligonucleotide | 7-mer Z-score
GUUGACA | -0.00833
UCGGGGU | -0.151
CUGGCUG | -0.0863
UCUAAGU | -0.36
GCGGGUA | 0.184
AUUAUAC | -0.161
GGGGUCG | 0.184
AAUUUUG | 0.0315

Set 3
Target: Prothrombin, mature alpha-thrombin (F2, Homo sapiens, UniProt P00734)
Method: aptamer microarray, sandwich
Form: DNA with 2'F-ANA
Sample: in vitro
Concentration: 200 nM
Notes: whole 15-mer aptamer, many near background
With: Cy3 exosite-II aptamer, 400 nM
Reading: higher = stronger binding
Oligonucleotide: GGTTGGTGTGGTTGG
Modification | mean fluorescence intensity [a.u.]
2'F-ANA at 2 5 6 7 8 13 | 63.7
2'F-ANA at 2 4 6 10 11 12 13 | 88.9
2'F-ANA at 7 8 9 10 11 14 15 | 122
2'F-ANA at 1 3 5 6 10 11 12 15 | 49.7
2'F-ANA at 1 2 3 5 6 7 8 10 13 | 56.4
2'F-ANA at 3 12 15 | 1380
2'F-ANA at 2 3 5 9 11 | 136
2'F-ANA at 1 4 6 9 10 14 | 166

Set 4
Target: HLA class I histocompatibility antigen, A alpha chain, allele A*26:03 (Homo sapiens, UniProt P04439)
Observed: peptide-MHC binding
Form: peptide
Concentration: concentration not given
Molecule | binding
EELRSLYNTV | inactive
YMREVGAAL | inactive
IARLVYKAR | inactive
RSLFNTIAVLY | inactive
WLSVIAFGK | inactive
EIRHRSGIQ | inactive
EVPEMFGAE | inactive

Repeated from above (set 3):
Modification | mean fluorescence intensity [a.u.]
2'F-ANA at 1 4 6 9 10 14 | 166
2'F-ANA at 2 4 6 10 11 12 13 | 88.9
2'F-ANA at 3 12 15 | 1380
